Published values collected from several papers.
Each line is one published result; not all experiments were run side by side. Numbers after ± are the reported error.

Chains of the proteins cited; added tags and fusions are not shown. Residues count along the entry.
UniProt Q9P2K8, whole entry: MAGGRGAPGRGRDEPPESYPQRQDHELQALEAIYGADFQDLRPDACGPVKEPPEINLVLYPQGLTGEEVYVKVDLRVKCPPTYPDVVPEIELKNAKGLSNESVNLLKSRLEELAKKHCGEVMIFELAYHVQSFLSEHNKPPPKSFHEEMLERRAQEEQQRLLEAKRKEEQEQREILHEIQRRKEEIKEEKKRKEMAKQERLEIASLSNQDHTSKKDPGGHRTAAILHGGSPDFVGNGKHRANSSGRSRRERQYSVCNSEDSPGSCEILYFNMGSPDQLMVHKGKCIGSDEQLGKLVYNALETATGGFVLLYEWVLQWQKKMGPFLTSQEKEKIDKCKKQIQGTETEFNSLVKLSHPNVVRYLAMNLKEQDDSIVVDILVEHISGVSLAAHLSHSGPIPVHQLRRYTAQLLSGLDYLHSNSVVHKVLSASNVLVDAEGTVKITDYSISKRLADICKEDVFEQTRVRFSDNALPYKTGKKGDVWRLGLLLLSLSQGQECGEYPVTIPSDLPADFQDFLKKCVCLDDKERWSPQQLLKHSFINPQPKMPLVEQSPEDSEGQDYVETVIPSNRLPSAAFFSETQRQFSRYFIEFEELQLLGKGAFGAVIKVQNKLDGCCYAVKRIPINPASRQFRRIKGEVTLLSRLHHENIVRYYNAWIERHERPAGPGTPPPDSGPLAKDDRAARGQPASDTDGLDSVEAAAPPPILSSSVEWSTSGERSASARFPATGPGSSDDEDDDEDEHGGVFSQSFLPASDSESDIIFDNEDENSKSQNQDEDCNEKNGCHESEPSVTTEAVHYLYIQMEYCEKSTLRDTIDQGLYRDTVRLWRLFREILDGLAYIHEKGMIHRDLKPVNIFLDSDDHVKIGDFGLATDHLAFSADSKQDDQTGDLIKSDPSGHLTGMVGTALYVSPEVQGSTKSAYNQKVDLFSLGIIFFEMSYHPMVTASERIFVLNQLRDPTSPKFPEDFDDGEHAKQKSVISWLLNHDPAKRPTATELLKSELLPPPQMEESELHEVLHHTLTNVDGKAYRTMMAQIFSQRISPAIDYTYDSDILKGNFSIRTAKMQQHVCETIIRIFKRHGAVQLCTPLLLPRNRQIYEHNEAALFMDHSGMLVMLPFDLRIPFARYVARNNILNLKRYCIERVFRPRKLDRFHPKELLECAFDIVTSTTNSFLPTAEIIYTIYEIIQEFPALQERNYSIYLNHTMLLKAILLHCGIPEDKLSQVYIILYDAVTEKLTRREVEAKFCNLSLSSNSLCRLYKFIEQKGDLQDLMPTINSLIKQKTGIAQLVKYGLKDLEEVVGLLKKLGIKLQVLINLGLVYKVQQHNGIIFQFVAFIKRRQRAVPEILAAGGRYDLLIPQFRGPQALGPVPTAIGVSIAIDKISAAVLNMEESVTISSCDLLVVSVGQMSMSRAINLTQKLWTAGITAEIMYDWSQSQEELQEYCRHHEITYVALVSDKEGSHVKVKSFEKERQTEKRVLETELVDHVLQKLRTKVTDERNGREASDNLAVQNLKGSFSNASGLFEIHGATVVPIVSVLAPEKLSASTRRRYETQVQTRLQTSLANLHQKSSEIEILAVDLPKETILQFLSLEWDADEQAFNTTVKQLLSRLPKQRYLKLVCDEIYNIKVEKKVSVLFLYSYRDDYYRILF
UniProt P02769, 25-607 limits assumed: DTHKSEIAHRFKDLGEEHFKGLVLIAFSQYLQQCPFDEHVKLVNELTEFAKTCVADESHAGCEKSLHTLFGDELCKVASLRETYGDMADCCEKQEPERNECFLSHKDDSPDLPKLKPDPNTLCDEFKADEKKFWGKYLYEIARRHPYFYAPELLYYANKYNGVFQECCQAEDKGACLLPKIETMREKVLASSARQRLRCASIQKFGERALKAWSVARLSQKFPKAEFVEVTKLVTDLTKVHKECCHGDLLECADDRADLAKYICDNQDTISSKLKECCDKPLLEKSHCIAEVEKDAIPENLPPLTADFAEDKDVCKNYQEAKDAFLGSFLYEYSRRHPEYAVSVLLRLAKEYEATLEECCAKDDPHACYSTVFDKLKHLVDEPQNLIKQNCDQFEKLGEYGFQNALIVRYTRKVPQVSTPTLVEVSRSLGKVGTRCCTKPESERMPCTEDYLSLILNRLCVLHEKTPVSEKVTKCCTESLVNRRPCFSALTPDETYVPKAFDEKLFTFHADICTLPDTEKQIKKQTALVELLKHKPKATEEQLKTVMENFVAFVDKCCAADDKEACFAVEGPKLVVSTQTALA
UniProt P05177, whole entry: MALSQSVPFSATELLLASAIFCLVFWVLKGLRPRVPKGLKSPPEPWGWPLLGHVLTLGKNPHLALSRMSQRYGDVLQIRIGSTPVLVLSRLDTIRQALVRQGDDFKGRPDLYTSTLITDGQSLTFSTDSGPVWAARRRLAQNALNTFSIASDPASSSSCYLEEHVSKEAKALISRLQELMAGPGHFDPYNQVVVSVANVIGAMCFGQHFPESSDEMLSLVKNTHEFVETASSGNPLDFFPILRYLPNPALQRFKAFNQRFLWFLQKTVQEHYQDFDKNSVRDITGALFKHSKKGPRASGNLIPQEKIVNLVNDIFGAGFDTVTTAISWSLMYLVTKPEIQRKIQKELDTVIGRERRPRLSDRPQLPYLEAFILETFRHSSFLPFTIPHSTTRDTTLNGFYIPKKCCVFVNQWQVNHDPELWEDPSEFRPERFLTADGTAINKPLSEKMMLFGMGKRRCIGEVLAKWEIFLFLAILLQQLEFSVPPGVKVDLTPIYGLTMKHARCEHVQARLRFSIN
UniProt P02768, 25-609 limits assumed: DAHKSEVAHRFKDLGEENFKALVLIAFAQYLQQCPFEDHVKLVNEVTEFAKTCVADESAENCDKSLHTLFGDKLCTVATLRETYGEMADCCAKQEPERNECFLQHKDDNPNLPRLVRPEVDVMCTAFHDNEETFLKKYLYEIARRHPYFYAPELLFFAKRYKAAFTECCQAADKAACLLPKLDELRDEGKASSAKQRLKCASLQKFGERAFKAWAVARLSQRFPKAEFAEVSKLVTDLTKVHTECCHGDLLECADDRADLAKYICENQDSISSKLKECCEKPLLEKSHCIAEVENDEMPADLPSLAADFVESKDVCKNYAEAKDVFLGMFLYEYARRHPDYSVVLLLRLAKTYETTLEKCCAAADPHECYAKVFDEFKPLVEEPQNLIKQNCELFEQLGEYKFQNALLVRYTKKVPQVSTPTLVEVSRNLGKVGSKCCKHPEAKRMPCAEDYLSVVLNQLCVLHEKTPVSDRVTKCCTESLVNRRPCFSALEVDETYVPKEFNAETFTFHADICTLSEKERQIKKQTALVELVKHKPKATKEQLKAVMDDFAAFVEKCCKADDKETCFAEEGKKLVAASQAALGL
UniProt P08183, whole entry: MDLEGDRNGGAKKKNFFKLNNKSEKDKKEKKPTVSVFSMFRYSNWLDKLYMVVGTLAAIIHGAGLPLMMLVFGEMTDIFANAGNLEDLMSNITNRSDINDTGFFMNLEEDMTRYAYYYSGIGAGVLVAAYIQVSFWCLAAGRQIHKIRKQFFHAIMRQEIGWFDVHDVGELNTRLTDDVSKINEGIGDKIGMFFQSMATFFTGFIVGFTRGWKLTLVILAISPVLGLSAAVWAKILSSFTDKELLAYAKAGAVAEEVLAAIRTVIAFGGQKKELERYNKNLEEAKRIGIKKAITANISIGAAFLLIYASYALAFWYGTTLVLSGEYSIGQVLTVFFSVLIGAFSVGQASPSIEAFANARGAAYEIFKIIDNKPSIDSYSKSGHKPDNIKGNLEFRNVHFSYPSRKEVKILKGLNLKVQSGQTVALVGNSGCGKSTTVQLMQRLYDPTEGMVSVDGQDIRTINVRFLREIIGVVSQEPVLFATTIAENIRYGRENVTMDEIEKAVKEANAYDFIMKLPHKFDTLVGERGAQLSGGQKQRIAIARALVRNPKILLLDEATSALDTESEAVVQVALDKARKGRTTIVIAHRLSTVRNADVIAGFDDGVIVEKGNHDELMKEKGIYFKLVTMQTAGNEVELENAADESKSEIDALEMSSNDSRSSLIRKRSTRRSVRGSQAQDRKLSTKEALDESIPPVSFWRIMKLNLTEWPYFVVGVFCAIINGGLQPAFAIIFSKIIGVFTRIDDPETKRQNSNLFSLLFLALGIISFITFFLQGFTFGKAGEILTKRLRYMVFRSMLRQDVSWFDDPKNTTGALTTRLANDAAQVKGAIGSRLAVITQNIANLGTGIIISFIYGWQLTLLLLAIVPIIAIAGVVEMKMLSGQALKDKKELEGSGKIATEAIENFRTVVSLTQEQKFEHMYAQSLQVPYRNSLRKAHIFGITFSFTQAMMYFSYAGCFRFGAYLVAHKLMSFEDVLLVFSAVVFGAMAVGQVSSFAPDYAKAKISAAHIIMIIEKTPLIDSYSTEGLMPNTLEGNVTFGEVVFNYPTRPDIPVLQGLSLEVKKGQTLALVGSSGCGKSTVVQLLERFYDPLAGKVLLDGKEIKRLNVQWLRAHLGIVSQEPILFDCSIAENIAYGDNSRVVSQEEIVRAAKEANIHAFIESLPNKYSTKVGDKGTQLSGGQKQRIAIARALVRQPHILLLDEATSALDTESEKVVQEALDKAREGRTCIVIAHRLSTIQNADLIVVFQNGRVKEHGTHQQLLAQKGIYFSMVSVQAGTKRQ
UniProt P33261, whole entry: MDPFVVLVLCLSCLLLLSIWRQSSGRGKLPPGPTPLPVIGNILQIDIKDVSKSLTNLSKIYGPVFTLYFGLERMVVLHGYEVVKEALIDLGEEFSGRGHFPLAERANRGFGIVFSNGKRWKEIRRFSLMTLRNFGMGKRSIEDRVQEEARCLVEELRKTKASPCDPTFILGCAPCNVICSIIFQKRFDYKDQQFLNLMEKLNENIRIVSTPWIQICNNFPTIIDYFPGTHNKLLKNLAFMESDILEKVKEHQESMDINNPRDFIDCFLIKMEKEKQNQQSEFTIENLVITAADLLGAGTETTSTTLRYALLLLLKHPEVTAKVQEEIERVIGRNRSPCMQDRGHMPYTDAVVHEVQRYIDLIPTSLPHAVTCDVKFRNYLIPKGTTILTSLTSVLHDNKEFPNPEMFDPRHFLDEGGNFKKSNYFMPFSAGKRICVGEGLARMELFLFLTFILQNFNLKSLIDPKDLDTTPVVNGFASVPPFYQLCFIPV

Substance	tested on	assay	system	conditions	how to read	quantity	result
COC(=O)c1ccc(Cl)cc1NC(=O)CSc1ncc(S(=O)(=O)c2ccc(Br)cc2)c(=O)[nH]1		dynamic light scattering	assay buffer	40 µM, without Tween 20		particle size	966 nm
CCN1CCN(Cc2ccc(NC(=O)c3ccc(C)c(/C=C/c4cnc5[nH]ccc5c4OC)c3)cc2C(F)(F)F)CC1	eIF-2-alpha kinase GCN2 (EIF2AK4, Homo sapiens, UniProt Q9P2K8)	inhibitor, cell-based kinome screen		5 µM	relative to: vehicle	log2 fold change	0.144 log2
CCCCCCCCCCCCCC(=S)NCCCC[C@H](NC(=O)OCc1ccccc1)C(=O)Nc1cccc(O)c1	MCF-10A	cell growth		normal cells K-Ras wild type		GI50	3 ± 1.2 µM
Cc1cc2ccccc2n1CCNC(=O)c1ccc(-c2nnn[nH]2)cc1			mouse liver microsomes			half-life	0.417 h
zidovudine	human PBM cells	cytotoxicity				CC50	> 100 µM
[N-]=[N+]=NCCCCCCCC(=O)O	Escherichia coli			concentration not given		growth reduction	≤ 50%
c1ccc(N2CCN(c3nc4cc5c(cc4s3)OCO5)CC2)cc1	Albumin (ALB, Bos taurus, UniProt P02769)	binding, fluorescence quenching		pH 7.4		IC50	95.1 µM
C[C@H](Cc1ccc(O)c(O)c1)[C@@H](C)Cc1ccc(O)c(O)c1			propylene glycol	24 h, room temperature		solubility	15 mg/mL
Cc1cc(C)c(CNC(=O)c2cc(-c3ccc(N4CCN(CCNC(=O)CC56CC7CC(CC(C7)C5)C6)CC4)nc3)cc3c2cnn3C(C)C)c(=O)[nH]1			mouse MDA-MB-468 xenograft	i.p., 150 mg/kg once daily, 36 days		tolerability	not toxic
O=[N+]([O-])O[C@H]1CO[C@H]2[C@@H]1OC[C@H]2O[N+](=O)[O-]	HaCaT			100 µM, 18 h		viability	110%
C=C[C@@H]1[C@H]2CCC[C@]1(c1cccc(O)c1)CCN2CCc1ccccc1			rat cytosol 2 mg/mL	1 µM, pH 7.4		half-life	1.36 h
O=C(Cc1ccccc1Cl)N1CCN(c2ccc3nncn3n2)CC1	Albumin (ALB, Bos taurus, UniProt P02769)	binding, fluorescence quenching		pH 7.4		IC50	> 100 µM
CCOc1ccc2cc(-c3nn(CC4CCN(C)CC4)c4ncnc(N)c34)ccc2n1	Salmonella enterica serovar Typhimurium	Ames test		together with: S9 metabolic activation		mutagenicity	negative
COc1cc(OC)c2ccccc2c1C=C1C(=O)NC(=S)NC1=O	human CD19+ B lymphocytes	MTS		concentration not given, 3 days		cell number	no effect
Cc1cc(Cl)c2c(c1N)C(=O)c1ccccc1C2=O	Cytochrome P450 1A2 (CYP1A2, Homo sapiens, UniProt P05177)	enzyme activity, mechanism-based inhibitor		pre-incubation without NADPH		KI	0.5 µM
CC#C/C(=N\OC[C@H]1COCCN1)c1ccc2ncnc(Nc3ccc(OCc4cccc(F)c4)c(Cl)c3)c2c1	Albumin (ALB, Homo sapiens, UniProt P02768)		serum albumin			protein binding	> 99%
Cc1ccc2nc(-c3ccc4nc(-c5ccc(NC(=O)c6cccnc6)cc5)sc4c3)sc2c1S(=O)(=O)O			MOPS buffer, DMSO 2%	pH 6.5		solubility	> 110 µM
O=C(Cc1ccccc1)N1CCN(c2nc3ccccc3s2)CC1	Albumin (ALB, Bos taurus, UniProt P02769)	binding, fluorescence quenching		pH 7.4		IC50	> 100 µM
CCCc1nn2c(=O)cc(CSc3nc(-c4ccc(C)cc4)nc4cc(=O)[nH]n34)nc2s1		dynamic light scattering	assay buffer	40 µM, without Tween 20		particle size	268 nm
CO[C@]12CC[C@@]3(C[C@@H]1C(C)(C)O)[C@H]1Cc4ccc(O)c5c4[C@@]3(CCN1CC1CC1)[C@H]2O5	ATP-dependent translocase ABCB1 (ABCB1, Homo sapiens, UniProt P08183)	P-gp ATPase activity		25 µM, 40 min	relative to: basal activity, negative means inhibition	fold stimulation	-0.94 ± 0.7 fold
Cc1ccc(CCNC(=O)c2cnn3c(O)c(Cc4cc(C)ccc4C)c(C)nc23)cc1		dynamic light scattering	assay buffer	40 µM, without Tween 20		particle size	628 nm
O=C(Nc1ccccc1)c1cc([N+](=O)[O-])ccc1Cl	Salmonella typhimurium	Ames plate incorporation	TA98	500 µg/plate, without metabolic activation		revertants	272 ± 3 revertants/plate
CSCC[C@@H](C=O)NC(=O)[C@H](CC(C)C)NC(=O)[C@H](CC(C)C)NC(C)=O	MDCK	neutral red uptake		48 h		CC50	> 100 µM
CO[C@]12CC[C@@]3(C[C@@H]1C(C)(C)O)[C@H]1Cc4ccc(O)c5c4[C@@]3(CCN1CC1CC1)[C@H]2O5	Cytochrome P450 2C19 (CYP2C19, Homo sapiens, UniProt P33261)		human liver microsomes	10 µM		inhibition	33.7%
CC(=O)N1C[C@@H](COP(=O)(N(C)C)N2C[C@@H](COP(=O)(N(C)C)N3C[C@@H](COP(=O)(N(C)C)N4C[C@@H](COP(=O)(N(C)C)N5C[C@@H](COP(=O)(N(C)C)N6C[C@@H](COP(=O)(N(C)C)N7C[C@@H](COP(=O)(N(C)C)N8C[C@@H](COP(=O)(N(C)C)N9C[C@@H](COP(=O)(N(C)C)N%10C[C@@H](COP(=O)(N(C)C)N%11C[C@@H](COP(=O)(N(C)C)N%12C[C@@H](COP(=O)(N(C)C)N%13C[C@@H](COP(=O)(N(C)C)N%14C[C@@H](COP(=O)(N(C)C)N%15C[C@@H](COP(=O)(N(C)C)N%16C[C@@H](COP(=O)(N(C)C)N%17C[C@@H](COP(=O)(N(C)C)N%18C[C@@H](COP(=O)(N(C)C)N%19C[C@@H](COP(=O)(N(C)C)N%20C[C@@H](COP(=O)(N(C)C)N%21C[C@@H](COP(=O)(N(C)C)N%22C[C@@H](COP(=O)(N(C)C)N%23C[C@@H](COP(=O)(N(C)C)N%24CCN(C(=O)CCCN%25C(=O)CC(SC[C@H](NC(=O)[C@H](CCCNC(=N)N)NC(=O)[C@H](CCCNC(=N)N)NC(=O)[C@H](CCCNC(=N)N)NC(=O)[C@H](CCCNC(=N)N)NC(=O)[C@H](Cc%26ccccc%26)NC(=O)[C@H](Cc%26ccccc%26)NC(=O)[C@H](CCCNC(=N)N)NC(=O)[C@H](CCCNC(=N)N)NC(=O)[C@H](CCCNC(=N)N)NC(=O)[C@H](CCCNC(=N)N)NC(=O)[C@@H](N)CCCNC(=N)N)C(N)=O)C%25=O)CC%24)O[C@@H](n%24cnc%25c(=O)[nH]c(N)nc%25%24)C%23)O[C@@H](n%23cc(C)c(=O)[nH]c%23=O)C%22)O[C@@H](n%22ccc(N)nc%22=O)C%21)O[C@@H](n%21cnc%22c(N)ncnc%22%21)C%20)O[C@@H](n%20cc(C)c(=O)[nH]c%20=O)C%19)O[C@@H](n%19ccc(N)nc%19=O)C%18)O[C@@H](n%18cc(C)c(=O)[nH]c%18=O)C%17)O[C@@H](n%17cc(C)c(=O)[nH]c%17=O)C%16)O[C@@H](n%16cnc%17c(=O)[nH]c(N)nc%17%16)C%15)O[C@@H](n%15ccc(N)nc%15=O)C%14)O[C@@H](n%14cnc%15c(=O)[nH]c(N)nc%15%14)C%13)O[C@@H](n%13ccc(N)nc%13=O)C%12)O[C@@H](n%12ccc(N)nc%12=O)C%11)O[C@@H](n%11cnc%12c(N)ncnc%12%11)C%10)O[C@@H](n%10cc(C)c(=O)[nH]c%10=O)C9)O[C@@H](n9cc(C)c(=O)[nH]c9=O)C8)O[C@@H](n8cc(C)c(=O)[nH]c8=O)C7)O[C@@H](n7cc(C)c(=O)[nH]c7=O)C6)O[C@@H](n6cc(C)c(=O)[nH]c6=O)C5)O[C@@H](n5cnc6c(=O)[nH]c(N)nc65)C4)O[C@@H](n4cc(C)c(=O)[nH]c4=O)C3)O[C@@H](n3cnc4c(=O)[nH]c(N)nc43)C2)O[C@@H](n2cnc3c(=O)[nH]c(N)nc32)C1 (stereo partly drawn)	BCBL1 cells			8 µM	relative to: mock-treated	viability	103%
CC[C@@H](C(N)=O)N1CCCC1=O		LC-MS/MS	rat, paraoxon-induced status epilepticus, whole blood	intramuscular, 50 mg/kg levetiracetam, together with: atropine 5 mg/kg		terminal half-life	1.62 h
CC(CCC(=O)N(CCNC(=O)C(F)(F)F)CC(=O)O)[C@H]1CC[C@H]2[C@@H]3[C@H](O)C[C@@H]4C[C@H](O)CC[C@]4(C)[C@H]3C[C@H](O)[C@]12C (stereo partly drawn)		LC-MS/MS	mouse, gallbladder	oral, 150 mg/kg		gallbladder concentration	14.8 mM

A few entries again:
Substance	tested on	assay	system	conditions	how to read	quantity	result
O=C(Cc1ccccc1)N1CCN(c2nc3ccccc3s2)CC1	Albumin (ALB, Bos taurus, UniProt P02769)	binding, fluorescence quenching		pH 7.4		IC50	> 100 µM
zidovudine	human PBM cells	cytotoxicity				CC50	> 100 µM
